# Results of several laboratories.
# Cell line: SNB-19
# Method: SRB
SMILES,effect on,tested at,time,reference,endpoint,result
CC(=O)c1cccc(NC2C(N)C(NC(=O)N(C)C)(C(C)O)C(O)C2(O)COC(=O)c2c(C)cccc2O)c1 (stereo not drawn),cell growth or viability,,,,GI50,0.52 µM
CC/C=C\C/C=C\C/C=C\C/C=C\C/C=C\C/C=C\CCC(=O)Nc1ccn(C2OC(CO)C(O)C2(F)F)c(=O)n1 (stereo not drawn),cell growth or viability,,,,GI50,0.0223 µM
CC(=O)OCC1(O)C(Nc2cccc(C(C)=O)c2)C(N)C(NC(=O)N(C)C)(C(C)OC(C)=O)C1(C)O (stereo not drawn),cell growth or viability,,,,GI50,0.57 µM
CC(Cc1ccc(Cl)cc1)=C(c1ccc(Cl)cc1)c1ccc(OCCN(C)C)cc1,cell growth or viability,,,,GI50,5.04 µM
CC(=O)OC[C@H]1O[C@@H](Sc2sc(C(=O)c3ccc(C)cc3)c(N)c2-c2nc3ccccc3s2)[C@H](OC(C)=O)[C@@H](OC(C)=O)[C@@H]1OC(C)=O,,10 µM,48 h,untreated,growth,74.4%
COc1ccc(C2=Nn3c(NN=C4C(=O)N(C)c5ccc(Br)cc54)nnc3SC2)cc1,cell growth or viability,10 µM,,,inhibition,18%
CC(=C(c1ccc(O)cc1)c1ccc(Cl)cc1)c1ccc(Cl)cc1,cell growth or viability,,,,GI50,0.96 µM
CC(=O)OC[C@H]1O[C@@H](Sc2sc(C(=O)c3ccc(Br)cc3)c(N)c2-c2nc3ccccc3s2)[C@H](OC(C)=O)[C@@H](OC(C)=O)[C@@H]1OC(C)=O,,10 µM,48 h,untreated,growth,75.2%
O=C1Nc2ccccc2/C1=N\Nc1nnc2n1N=C(c1ccc(Cl)cc1)CS2,cell growth or viability,10 µM,,,inhibition,10%

# Excerpt of the above:
SMILES,effect on,tested at,time,reference,endpoint,result
CC(=O)OC[C@H]1O[C@@H](Sc2sc(C(=O)c3ccc(C)cc3)c(N)c2-c2nc3ccccc3s2)[C@H](OC(C)=O)[C@@H](OC(C)=O)[C@@H]1OC(C)=O,,10 µM,48 h,untreated,growth,74.4%
CC/C=C\C/C=C\C/C=C\C/C=C\C/C=C\C/C=C\CCC(=O)Nc1ccn(C2OC(CO)C(O)C2(F)F)c(=O)n1 (stereo not drawn),cell growth or viability,,,,GI50,0.0223 µM
